Published values of several laboratories.
Protocols differ between the studies behind these lines. “And” joins repeats or separate records; there may be more than shown. ± marks the error that the study gave.
PTPN1: Tyrosine-protein phosphatase non-receptor type 1 (PTPN1, Homo sapiens, UniProt P18031)

Chains of the proteins cited; added tags and fusions are not shown. Lines headed by an entry give the natural chain unless they say otherwise; changes in a name come on top. Residues count along the entry.
UniProt P18031, 1-321 limits assumed: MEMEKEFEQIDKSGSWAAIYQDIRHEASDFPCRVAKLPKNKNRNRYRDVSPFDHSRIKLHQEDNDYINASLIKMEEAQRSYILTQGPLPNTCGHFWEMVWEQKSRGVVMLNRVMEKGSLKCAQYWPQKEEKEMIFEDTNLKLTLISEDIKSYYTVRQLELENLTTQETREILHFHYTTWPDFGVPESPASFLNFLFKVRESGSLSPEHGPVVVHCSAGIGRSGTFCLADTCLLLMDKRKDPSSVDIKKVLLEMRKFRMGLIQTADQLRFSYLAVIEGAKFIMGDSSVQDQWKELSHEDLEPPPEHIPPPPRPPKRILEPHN
UniProt Q99250, whole entry: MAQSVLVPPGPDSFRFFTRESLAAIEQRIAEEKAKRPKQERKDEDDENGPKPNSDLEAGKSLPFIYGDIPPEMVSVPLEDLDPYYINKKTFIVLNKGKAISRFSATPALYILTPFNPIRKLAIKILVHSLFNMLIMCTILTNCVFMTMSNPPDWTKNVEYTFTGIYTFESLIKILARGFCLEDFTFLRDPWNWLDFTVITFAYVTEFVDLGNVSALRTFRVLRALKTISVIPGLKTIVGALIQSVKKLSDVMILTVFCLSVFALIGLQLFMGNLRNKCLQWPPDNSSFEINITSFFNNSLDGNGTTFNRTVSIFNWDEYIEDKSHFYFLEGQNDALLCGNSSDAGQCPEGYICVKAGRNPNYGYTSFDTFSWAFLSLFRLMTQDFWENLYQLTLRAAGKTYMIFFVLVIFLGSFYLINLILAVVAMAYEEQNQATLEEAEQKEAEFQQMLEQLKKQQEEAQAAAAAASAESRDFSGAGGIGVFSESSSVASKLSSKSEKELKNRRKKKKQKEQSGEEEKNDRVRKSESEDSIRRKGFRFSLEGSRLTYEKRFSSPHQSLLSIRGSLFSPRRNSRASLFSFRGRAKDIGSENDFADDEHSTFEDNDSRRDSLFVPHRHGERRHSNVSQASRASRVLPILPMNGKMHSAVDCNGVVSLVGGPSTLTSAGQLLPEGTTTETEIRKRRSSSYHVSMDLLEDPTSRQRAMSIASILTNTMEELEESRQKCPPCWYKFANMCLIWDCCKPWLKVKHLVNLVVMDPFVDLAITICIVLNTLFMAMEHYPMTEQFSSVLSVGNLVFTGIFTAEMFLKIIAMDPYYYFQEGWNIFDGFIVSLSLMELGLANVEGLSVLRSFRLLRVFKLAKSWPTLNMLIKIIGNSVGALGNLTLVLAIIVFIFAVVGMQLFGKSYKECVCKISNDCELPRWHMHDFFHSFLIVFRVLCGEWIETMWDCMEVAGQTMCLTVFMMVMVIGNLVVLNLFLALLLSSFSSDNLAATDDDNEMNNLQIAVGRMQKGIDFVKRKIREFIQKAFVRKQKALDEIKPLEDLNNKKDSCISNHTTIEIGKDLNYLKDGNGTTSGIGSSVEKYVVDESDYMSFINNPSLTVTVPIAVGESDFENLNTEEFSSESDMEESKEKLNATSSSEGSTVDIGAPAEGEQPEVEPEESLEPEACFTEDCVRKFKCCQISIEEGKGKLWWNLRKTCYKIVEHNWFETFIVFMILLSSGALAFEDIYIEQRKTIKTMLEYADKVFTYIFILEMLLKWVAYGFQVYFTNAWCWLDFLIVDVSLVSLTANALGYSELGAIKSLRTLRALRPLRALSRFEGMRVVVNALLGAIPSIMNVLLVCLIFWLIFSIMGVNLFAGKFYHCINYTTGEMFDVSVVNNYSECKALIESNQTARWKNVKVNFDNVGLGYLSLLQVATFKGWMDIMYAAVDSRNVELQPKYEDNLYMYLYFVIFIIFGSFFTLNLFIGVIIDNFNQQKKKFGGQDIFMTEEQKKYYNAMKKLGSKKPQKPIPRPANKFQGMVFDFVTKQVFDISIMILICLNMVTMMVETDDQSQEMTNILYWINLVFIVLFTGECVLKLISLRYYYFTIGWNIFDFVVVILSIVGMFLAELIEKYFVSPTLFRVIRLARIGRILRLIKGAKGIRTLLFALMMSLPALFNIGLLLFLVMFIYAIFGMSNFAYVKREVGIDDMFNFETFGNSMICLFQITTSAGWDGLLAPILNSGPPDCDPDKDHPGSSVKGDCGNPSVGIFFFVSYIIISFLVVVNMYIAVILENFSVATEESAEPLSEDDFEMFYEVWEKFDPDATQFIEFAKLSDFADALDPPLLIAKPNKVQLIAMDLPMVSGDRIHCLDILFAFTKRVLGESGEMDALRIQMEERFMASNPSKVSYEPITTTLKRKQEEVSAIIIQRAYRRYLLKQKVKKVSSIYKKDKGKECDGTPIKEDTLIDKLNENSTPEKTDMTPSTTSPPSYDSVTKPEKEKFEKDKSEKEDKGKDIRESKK
UniProt O60704, 25-377 limits assumed: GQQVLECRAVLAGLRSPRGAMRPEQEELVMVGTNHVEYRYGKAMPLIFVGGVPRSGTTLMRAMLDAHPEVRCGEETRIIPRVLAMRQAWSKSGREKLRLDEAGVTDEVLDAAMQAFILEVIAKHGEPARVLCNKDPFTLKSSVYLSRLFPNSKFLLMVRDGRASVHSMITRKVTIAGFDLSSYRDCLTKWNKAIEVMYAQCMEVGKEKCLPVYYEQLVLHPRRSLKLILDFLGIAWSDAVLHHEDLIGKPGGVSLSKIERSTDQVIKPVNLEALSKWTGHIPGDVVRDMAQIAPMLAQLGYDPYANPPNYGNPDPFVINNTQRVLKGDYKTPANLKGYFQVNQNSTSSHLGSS
UniProt P16083, whole entry: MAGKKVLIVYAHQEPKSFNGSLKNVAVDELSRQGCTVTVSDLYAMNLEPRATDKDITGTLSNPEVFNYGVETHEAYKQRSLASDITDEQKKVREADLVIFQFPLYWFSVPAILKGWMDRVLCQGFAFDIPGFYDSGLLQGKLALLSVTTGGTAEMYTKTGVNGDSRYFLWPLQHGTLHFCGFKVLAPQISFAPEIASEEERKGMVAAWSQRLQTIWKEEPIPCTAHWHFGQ
UniProt P00639, whole entry, looked up: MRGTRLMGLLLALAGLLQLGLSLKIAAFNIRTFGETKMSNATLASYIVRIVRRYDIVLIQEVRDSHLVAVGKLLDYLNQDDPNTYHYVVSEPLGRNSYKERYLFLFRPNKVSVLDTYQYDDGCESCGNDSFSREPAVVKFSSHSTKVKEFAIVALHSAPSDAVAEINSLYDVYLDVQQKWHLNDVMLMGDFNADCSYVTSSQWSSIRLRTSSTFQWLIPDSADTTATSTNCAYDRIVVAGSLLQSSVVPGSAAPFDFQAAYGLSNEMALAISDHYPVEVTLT
UniProt Q3E9C0, whole entry: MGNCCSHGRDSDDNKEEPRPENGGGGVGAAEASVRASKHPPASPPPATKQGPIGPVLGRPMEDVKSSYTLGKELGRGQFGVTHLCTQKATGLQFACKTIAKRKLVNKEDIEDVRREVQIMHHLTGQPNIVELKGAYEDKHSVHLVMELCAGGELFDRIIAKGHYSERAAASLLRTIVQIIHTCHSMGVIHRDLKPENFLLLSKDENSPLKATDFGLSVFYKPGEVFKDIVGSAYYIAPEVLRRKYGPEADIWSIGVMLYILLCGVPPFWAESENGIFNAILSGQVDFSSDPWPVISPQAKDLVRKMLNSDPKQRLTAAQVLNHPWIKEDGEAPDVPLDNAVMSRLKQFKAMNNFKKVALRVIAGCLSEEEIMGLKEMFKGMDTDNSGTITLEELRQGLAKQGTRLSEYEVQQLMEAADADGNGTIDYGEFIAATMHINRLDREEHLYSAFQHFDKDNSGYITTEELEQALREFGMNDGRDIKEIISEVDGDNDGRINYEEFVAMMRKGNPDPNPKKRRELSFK
UniProt Q9BY41, whole entry: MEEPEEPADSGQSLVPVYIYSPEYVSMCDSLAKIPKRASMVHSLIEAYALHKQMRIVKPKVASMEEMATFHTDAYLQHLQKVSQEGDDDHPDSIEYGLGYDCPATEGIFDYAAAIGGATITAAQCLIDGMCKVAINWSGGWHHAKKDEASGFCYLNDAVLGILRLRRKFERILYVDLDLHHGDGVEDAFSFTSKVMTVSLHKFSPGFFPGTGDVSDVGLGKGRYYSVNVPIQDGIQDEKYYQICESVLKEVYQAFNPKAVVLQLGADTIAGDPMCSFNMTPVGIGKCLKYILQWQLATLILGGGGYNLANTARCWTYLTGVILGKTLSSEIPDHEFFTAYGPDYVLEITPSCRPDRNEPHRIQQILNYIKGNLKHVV
UniProt Q16539, whole entry: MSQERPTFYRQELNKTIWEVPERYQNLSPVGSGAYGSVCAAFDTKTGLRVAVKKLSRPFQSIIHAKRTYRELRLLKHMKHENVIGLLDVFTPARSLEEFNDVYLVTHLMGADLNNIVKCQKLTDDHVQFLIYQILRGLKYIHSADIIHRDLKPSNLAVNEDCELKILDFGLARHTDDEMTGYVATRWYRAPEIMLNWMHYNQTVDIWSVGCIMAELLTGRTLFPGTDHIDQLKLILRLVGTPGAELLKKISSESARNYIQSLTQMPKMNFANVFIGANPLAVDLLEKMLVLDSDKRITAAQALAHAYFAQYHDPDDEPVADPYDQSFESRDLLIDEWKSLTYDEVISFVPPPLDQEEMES
UniProt P61981, whole entry: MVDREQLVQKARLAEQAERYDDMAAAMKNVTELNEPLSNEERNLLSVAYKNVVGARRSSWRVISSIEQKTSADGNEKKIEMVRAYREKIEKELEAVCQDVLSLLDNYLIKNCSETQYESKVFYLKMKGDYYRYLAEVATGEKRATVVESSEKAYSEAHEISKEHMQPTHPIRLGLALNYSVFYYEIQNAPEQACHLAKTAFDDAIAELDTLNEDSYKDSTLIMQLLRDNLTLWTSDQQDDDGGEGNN
UniProt O15151, 23-111 limits assumed: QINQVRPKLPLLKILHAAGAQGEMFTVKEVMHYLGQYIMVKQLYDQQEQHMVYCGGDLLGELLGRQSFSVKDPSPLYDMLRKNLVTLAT
UniProt P14416, whole entry: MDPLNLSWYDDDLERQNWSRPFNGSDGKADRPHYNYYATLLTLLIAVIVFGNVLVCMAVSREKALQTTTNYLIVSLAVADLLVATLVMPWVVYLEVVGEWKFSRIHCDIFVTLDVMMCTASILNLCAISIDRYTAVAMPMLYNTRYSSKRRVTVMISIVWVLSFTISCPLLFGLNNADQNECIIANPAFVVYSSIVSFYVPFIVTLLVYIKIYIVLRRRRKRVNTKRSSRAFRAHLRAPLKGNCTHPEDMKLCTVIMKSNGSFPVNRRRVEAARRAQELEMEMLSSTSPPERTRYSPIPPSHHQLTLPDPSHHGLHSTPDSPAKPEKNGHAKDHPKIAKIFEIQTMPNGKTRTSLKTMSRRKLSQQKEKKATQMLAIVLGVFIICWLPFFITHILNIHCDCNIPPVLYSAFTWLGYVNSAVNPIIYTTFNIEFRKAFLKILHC
UniProt P21462, whole entry: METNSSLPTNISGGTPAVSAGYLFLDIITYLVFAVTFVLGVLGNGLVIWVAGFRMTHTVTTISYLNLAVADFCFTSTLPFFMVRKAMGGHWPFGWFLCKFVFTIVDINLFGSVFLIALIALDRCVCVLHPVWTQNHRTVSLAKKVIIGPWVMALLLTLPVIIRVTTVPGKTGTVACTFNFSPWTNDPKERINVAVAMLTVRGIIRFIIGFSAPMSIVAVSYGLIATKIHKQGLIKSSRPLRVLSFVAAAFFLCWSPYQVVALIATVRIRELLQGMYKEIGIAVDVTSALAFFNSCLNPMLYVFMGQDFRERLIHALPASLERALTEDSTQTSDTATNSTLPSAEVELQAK

The inhibition of `NC12CC3CC(F)(CC(C1)c1ccccc13)C2` is reported as 69.1 ± 1.2% (Glutamate NMDA receptor; Grin1/Grin2a (Grin1/Grin2a, Rattus norvegicus, UniProt P35439+Q00959); ion current, channel blocker, whole-cell patch clamp; tsA201; 10 µM, -60 mV, with: 100 µM NMDA, 10 µM glycine).
For `CC(=O)C12NC(C)(C)CC1(C)C(=O)C1=C2c2c(c3c4n2C(C)(C)CC2=C4C4(CC(C)(C)NC(C)(C4)C2=O)CC3(C)C)C(=O)C(C)(C)N1` (single isomer, unassigned), the inhibition was 32 ± 0.01% (SCN2A (Homo sapiens, UniProt Q99250); sodium current; 10 µM).
`CC[C@H](C)[C@H](NC(=O)[C@H](CC(=O)O)NC(=O)[C@@H]1CCCN1C(=O)[C@H](Cc1ccc(O)cc1)NC(=O)[C@H](Cc1ccc(O)cc1)NC(=O)[C@H](Cc1ccc(O)cc1)NC(=O)[C@H](CC(=O)O)NC(=O)[C@@H](NC(=O)[C@@H](N)C(C)C)[C@@H](C)O)C(=O)O` has a Vmax of 7.1 mU/mg protein (Protein-tyrosine sulfotransferase 2 (Homo sapiens, UniProt O60704); sulfation of compound, substrate, LC-MS initial velocity; pH 7.5, 30 °C, reaction 1).
`CN(C)CCNC(=O)c1cc([N+](=O)[O-])cc2ccc(-c3ccccc3)nc12`: “binding free energy” -10.2 kcal/mol (NQO2 (Homo sapiens, UniProt P16083); from IC50 by Cheng-Prusoff).
`C=C(C)C(=O)Nc1ccc(-c2c(-c3ccc(Oc4nccc(C)n4)c(F)c3)c3c(N)ncnc3n2C)cc1` gave an IC50 of 8.44 µM (MFE-319; cell growth, CellTiter-Glo; 120 h).
With `CC/C=C\C/C=C\CCC/C=C/C=C/C=C\CCCC(=O)O` the IC50 was over 100 µM (Deoxyribonuclease-1 (DNASE1, Bos taurus, UniProt P00639); enzyme activity, inhibitor).
For `CC[C@H](C)[C@H](NC(=O)[C@H](CCCNC(=N)N)NC(=O)[C@H](CO)NC(=O)[C@@H](NC(=O)[C@@H](NC(=O)[C@H](CCCCN)NC(=O)[C@@H](N)C(C)C)[C@@H](C)CC)[C@@H](C)CC)C(=O)N[C@@H](Cc1ccccc1)C(=O)N[C@@H](CO)C(=O)N[C@@H](CCC(N)=O)C(=O)N[C@@H](CCCNC(=N)N)C(=O)N[C@@H](CO)C(=O)N[C@@H](Cc1ccccc1)C(=O)N[C@@H](CCCNC(=N)N)C(=O)N[C@@H](CCCNC(=N)N)C(=O)O`, the relative phosphorylation was 31 fold (Calcium-dependent protein kinase 34 (CPK34, Arabidopsis thaliana, UniProt Q3E9C0); peptide phosphorylation, substrate, scintillation proximity; 20 µM, 24 min, with: 10 µM ATP; relative to: no peptide control, higher = more phosphorylation).
For `CCOC(=O)c1c(-c2ccc(Cl)cc2Cl)n(-c2nc(-c3ccc(Cl)cc3)c3c(NC(=O)c4ccccc4)nnc-3[nH]2)[nH]c1=O`, the cell growth was -17.4% (SN12C; SRB; 10 µM).
`CC(=O)NCCCC[C@H](NC(=O)[C@H](CCCCNC(C)=O)NC(=O)[C@H](Cc1c[nH]cn1)NC(=O)[C@H](CCCNC(=N)N)NC(C)=O)C(=O)Nc1ccc2c(C)cc(=O)oc2c1` has a kcat of 0.34 ± 0.06 s⁻¹ (HDAC8 (Homo sapiens, UniProt Q9BY41); deacetylation, substrate; 25 °C, with: 150 nM enzyme).
The Km of `CC(=O)N[C@@H](C)C(=O)N[C@@H](Cc1c[nH]c2ccccc12)C(=O)N[C@@H](CO)C(=O)N[C@@H](Cc1ccc(OP(=O)(O)O)cc1)C(=O)N[C@@H](C)C(=O)N[C@@H](CC(=O)O)C(=O)N[C@@H](Cc1ccc(OP(=O)(O)O)cc1)C(=O)N[C@@H](C)C(=O)N[C@@H](C)C(N)=O` is reported as 0.91 ± 0.08 µM (PTPN1; substrate, continuous UV; pH 7.4, multiply phosphorylated peptides apparent).
The remaining activity of `CC(C)C[C@H](NC(=O)[C@H](C)NC(=O)[C@H](CCCNC(=N)N)NC(=O)[C@H](CCCNC(=N)N)NC(=O)[C@H](CCCNC(=N)N)NC(=O)[C@H](C)NC(=O)[C@H](CC(C)C)NC(=O)[C@H](CCCNC(=N)N)NC(=O)[C@H](CO)NC(=O)[C@H](CCCCN)NC(=O)[C@H](CO)NC(=O)Cn1cc(COC(=O)[C@]2(C)C=C(C(=O)OC(C)(C)C)C(=O)CC2)nn1)C(=O)O` is reported as 0.851 and 1.01 and 1.03 (MAPK14 (Homo sapiens, UniProt Q16539); enzyme activity, inhibitor, D-SENSOR kinase; 0.01016 µM, unit not given; relative to: untreated).
`CC(C)C[C@H](NC(=O)[C@@H](NC(=O)[C@H](CC(C)C)NC(=O)[C@H](CS)NC(=O)CNS(=O)(=O)c1cccc2c(N(C)C)cccc12)C(C)C)C(=O)O` gave a kcat of 0.057 ± 0.017 s⁻¹ (geranylgeranyltransferase type-I (Rattus norvegicus, UniProt P53610+Q04631); substrate, fluorescence; 30 °C, GGPP 10 µM/enzyme 10 nM, with: SmgGDS-607 5 µM).
With `CC[C@H](C)[C@H](NC(=O)[C@H](CCCCN)NC(=O)[C@H](CCCNC(=N)N)NC(=O)[C@H](CCCCN)NC(C)=O)C(=O)N[C@@H](CC(C)C)C(=O)N[C@@H](CO)C(=O)N[C@@H](COP(=O)(O)O)C(=O)N[C@@H](CC(=O)O)C(=O)N[C@@H](CC(=O)O)C(=O)N[C@@H](CO)C(=O)N[C@@H](CC(C)C)C(=O)N[C@@H](CCCNC(=N)N)C(=O)N[C@@H](CO)C(N)=O` the TΔS was -0.8 kcal/mol (YWHAG (Homo sapiens, UniProt P61981); isothermal titration calorimetry; 37 °C).
For `COc1ccc(C2=N[C@@H](c3cccc(Cl)c3)[C@@H](c3ccc(Cl)cc3)N2C(=O)N2CCNC(=O)C2)c(OC(C)C)c1` (relative stereo), the ΔG was -7.3 ± 0.4 kcal/mol (Protein Mdm4 (MDM4, Homo sapiens, UniProt O15151); isothermal titration calorimetry; 298 K).
`N#Cc1c(-c2ccc(Cl)cc2Cl)n(-c2nc(-c3ccc(Cl)cc3)c3c(NC(=O)c4ccccc4)nnc-3[nH]2)[nH]c1=O` gave a cell growth of -5.94% (SK-OV-3; SRB; 10 µM).
The Km of `CC(=O)N[C@@H](C)C(=O)N[C@@H](CCCCN)C(=O)N[C@@H](Cc1ccccc1)C(=O)N[C@@H](CCC(=O)O)C(=O)N[C@@H](CC(=O)O)C(=O)N[C@H](C(=O)N[C@@H](Cc1ccc(OP(=O)(O)O)cc1)C(=O)N[C@@H](C)C(=O)N[C@@H](C)C(N)=O)[C@@H](C)O` is reported as 3.5 ± 1 µM (PTPN1; substrate, continuous UV; pH 7.4, multiply phosphorylated peptides apparent).
With `CCn1c2c(c3ccccc31)CCN(CCCCNC(=O)c1ccc3[nH]c4ccccc4c3c1)C2` the inhibition was 19.2 ± 8.3% (DRD2 (Homo sapiens, UniProt P14416); binding; 10 µM).
With `CCc1cc2c(=O)c(-c3nc4ccccc4n3C)c(C)oc2cc1OC(C)=O` the affinity ratio was over 100 fold (FPR1 (Homo sapiens, UniProt P21462); relative to: FPR1 over FPR2).

Some of these lines once more:
With `CC[C@H](C)[C@H](NC(=O)[C@H](CCCCN)NC(=O)[C@H](CCCNC(=N)N)NC(=O)[C@H](CCCCN)NC(C)=O)C(=O)N[C@@H](CC(C)C)C(=O)N[C@@H](CO)C(=O)N[C@@H](COP(=O)(O)O)C(=O)N[C@@H](CC(=O)O)C(=O)N[C@@H](CC(=O)O)C(=O)N[C@@H](CO)C(=O)N[C@@H](CC(C)C)C(=O)N[C@@H](CCCNC(=N)N)C(=O)N[C@@H](CO)C(N)=O` the TΔS was -0.8 kcal/mol (YWHAG (Homo sapiens, UniProt P61981); isothermal titration calorimetry; 37 °C).
For `COc1ccc(C2=N[C@@H](c3cccc(Cl)c3)[C@@H](c3ccc(Cl)cc3)N2C(=O)N2CCNC(=O)C2)c(OC(C)C)c1` (relative stereo), the ΔG was -7.3 ± 0.4 kcal/mol (Protein Mdm4 (MDM4, Homo sapiens, UniProt O15151); isothermal titration calorimetry; 298 K).
